Measurements from different studies.
Compare with care: the assays were run in different laboratories. Numbers after ± are the reported error.
MAPK14: Mitogen-activated protein kinase 14 (MAPK14, Homo sapiens, UniProt Q16539)
FPR1: fMet-Leu-Phe receptor (FPR1, Homo sapiens, UniProt P21462)
MDM4: Protein Mdm4 (MDM4, Homo sapiens, UniProt O15151)

Sequences of proteins named here, by UniProt entry; tags and fusion partners are left off. Residues count along the entry.
UniProt Q16539, whole entry: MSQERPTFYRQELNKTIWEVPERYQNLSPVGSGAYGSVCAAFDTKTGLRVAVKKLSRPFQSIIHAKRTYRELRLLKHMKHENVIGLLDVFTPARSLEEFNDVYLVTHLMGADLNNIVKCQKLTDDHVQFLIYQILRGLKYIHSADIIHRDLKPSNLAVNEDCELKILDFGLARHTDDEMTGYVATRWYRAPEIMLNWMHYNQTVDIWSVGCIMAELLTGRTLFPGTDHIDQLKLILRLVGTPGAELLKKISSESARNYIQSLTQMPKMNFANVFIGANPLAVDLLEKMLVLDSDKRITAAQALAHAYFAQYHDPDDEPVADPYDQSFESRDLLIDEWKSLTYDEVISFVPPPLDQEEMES
UniProt P21462, whole entry: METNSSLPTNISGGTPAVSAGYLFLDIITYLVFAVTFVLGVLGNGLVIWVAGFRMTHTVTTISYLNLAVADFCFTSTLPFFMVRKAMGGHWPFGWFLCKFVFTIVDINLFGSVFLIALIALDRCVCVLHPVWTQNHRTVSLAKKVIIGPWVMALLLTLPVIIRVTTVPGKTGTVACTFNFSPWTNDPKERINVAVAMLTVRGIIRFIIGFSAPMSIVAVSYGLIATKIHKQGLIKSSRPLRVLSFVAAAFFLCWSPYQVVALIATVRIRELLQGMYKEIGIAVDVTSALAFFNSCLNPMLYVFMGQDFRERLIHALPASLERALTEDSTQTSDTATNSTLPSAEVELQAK
UniProt O15151, 23-111 limits assumed: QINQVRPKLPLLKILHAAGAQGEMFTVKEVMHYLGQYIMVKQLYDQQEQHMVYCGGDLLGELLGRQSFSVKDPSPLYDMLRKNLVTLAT
UniProt Q9NZQ7, 19-290 limits assumed: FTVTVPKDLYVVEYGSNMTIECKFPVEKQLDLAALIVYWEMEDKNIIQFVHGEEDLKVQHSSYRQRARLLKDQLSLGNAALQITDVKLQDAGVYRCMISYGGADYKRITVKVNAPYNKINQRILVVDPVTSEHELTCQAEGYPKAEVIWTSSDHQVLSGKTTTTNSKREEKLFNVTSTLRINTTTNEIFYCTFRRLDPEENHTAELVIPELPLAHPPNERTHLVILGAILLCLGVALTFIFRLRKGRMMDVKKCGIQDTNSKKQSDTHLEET
UniProt P14842, whole entry: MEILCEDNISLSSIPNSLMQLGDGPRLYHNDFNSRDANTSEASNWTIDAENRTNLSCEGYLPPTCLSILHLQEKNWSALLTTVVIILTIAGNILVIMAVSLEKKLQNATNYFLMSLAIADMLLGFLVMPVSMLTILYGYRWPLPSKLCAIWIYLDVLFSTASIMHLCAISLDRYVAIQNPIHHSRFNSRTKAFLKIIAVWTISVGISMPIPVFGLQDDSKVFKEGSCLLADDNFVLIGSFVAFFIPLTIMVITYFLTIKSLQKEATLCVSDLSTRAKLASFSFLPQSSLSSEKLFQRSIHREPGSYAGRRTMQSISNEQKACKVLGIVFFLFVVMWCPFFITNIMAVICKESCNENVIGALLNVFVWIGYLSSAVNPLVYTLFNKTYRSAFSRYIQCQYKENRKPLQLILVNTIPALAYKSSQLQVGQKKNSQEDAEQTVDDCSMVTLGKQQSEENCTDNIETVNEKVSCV
UniProt P28072, 35-239 limits assumed: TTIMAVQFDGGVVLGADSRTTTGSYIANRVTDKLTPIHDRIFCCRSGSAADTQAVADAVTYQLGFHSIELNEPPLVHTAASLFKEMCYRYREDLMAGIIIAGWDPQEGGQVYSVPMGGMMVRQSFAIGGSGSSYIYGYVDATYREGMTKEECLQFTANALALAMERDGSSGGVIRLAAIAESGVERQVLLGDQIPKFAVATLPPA
UniProt Q04609, whole entry: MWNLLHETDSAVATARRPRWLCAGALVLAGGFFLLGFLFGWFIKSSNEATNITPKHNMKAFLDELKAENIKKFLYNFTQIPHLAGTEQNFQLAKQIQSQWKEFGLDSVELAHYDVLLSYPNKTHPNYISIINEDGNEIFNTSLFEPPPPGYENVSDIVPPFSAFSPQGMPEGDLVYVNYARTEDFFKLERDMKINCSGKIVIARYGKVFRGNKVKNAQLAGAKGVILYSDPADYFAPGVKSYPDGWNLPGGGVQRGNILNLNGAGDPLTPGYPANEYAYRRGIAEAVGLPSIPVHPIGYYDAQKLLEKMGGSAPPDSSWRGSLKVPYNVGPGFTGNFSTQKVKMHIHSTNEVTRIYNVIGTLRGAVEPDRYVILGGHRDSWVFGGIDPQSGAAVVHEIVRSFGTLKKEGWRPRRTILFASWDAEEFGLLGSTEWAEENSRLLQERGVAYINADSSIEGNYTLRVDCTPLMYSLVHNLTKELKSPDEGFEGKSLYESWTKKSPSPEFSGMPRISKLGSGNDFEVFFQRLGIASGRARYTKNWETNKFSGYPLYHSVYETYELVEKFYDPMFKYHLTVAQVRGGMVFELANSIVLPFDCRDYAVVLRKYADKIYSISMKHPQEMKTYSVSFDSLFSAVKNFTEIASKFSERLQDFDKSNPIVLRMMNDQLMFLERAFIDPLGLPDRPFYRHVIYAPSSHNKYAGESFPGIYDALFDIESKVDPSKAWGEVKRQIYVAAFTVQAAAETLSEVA
UniProt P18440, whole entry: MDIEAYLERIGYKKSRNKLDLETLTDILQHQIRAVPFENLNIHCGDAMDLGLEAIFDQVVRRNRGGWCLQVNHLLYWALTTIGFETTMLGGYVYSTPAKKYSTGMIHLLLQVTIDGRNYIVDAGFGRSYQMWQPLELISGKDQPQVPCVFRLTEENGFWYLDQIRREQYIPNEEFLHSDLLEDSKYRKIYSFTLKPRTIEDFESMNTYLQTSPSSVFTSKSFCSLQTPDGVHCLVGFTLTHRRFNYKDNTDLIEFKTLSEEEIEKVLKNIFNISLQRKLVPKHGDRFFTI
UniProt Q9Y2M5, 317-603 limits assumed: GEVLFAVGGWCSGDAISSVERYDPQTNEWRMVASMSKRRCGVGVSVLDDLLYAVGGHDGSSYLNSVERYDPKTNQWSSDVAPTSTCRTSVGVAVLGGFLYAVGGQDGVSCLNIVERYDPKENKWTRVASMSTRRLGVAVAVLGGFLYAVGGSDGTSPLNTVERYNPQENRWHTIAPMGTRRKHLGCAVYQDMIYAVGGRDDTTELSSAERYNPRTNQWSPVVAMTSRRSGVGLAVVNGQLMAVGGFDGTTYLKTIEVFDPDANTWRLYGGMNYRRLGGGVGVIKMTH
UniProt P02701, 25-152 limits assumed: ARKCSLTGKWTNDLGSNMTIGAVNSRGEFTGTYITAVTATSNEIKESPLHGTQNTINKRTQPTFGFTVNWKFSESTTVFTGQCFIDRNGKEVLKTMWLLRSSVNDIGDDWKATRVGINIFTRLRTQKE
UniProt Q3XYE8, 1-234: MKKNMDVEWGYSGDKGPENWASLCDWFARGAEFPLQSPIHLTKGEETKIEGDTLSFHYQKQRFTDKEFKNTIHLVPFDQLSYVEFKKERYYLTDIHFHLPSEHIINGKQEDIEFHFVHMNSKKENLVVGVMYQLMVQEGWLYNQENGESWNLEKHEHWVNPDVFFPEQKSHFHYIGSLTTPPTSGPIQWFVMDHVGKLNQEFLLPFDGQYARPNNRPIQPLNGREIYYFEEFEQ

| Structure (SMILES) | target or system | test | system | setting | endpoint | result |
| --- | --- | --- | --- | --- | --- | --- |
| CC[C@@H](C(=O)NCCCOCCOCCOCCCNC(=O)c1ccc2c(c1)C1(OC2=O)c2ccc(N3CC(F)C3)cc2[Si](C)(C)c2cc(N3CC(F)C3)ccc21)[C@@H]1N=C(c2ccc(Cl)cc2)c2c(sc(C)c2C)-n2c(C)nnc21 | Bromodomain-containing protein 4, BD2 (BRD4, Homo sapiens, UniProt O60885, L387A/H437A/M452G) | fluorescence cell imaging | human cells | – | Kd | 159 nM |
| C=C(C)C(=O)Nc1ccc(-c2c(-c3ccc(Oc4nccc(C)n4)c(F)c3)c3c(N)ncnc3n2C)cc1 | EN | cell growth, CellTiter-Glo | – | 120 h | IC50 | 279 nM |
| CC(C)C[C@H](NC(=O)[C@H](C)NC(=O)[C@H](CCCNC(=N)N)NC(=O)[C@H](CCCNC(=N)N)NC(=O)[C@H](CCCNC(=N)N)NC(=O)[C@H](C)NC(=O)[C@H](CC(C)C)NC(=O)[C@H](CCCNC(=N)N)NC(=O)[C@H](CO)NC(=O)[C@H](CCCCN)NC(=O)[C@H](CO)NC(=O)Cn1cc(COC(=O)[C@]2(C)C=C(C(=O)OC(C)(C)C)C(=O)CC2)nn1)C(=O)O | MAPK14 | enzyme activity, inhibitor, D-SENSOR | – | 0.09145 µM | normalized kinase activity | 0.759 |
| NS(=O)(=O)c1nnc(NC(=O)C2C3CC2C3)s1 (centres unmarked) | Enterococcus faecium gamma-carbonic anhydrase | CO2 hydration, inhibitor, stopped-flow kinetics | – | – | Ki | 280 nM |
| COc1nc(OCc2cccc(-c3ccccc3)c2C)ccc1CNCCNC(=O)CCCc1cn(CCOCCC(=O)N[C@@H](CC(=O)O)C(=O)N[C@@H](Cc2cnc[nH]2)C(=O)N[C@@H](CC(C)C)C(=O)N[C@@H](C)C(=O)N[C@@H](CO)C(=O)N[C@@H](CC(C)C)C(=O)N[C@@H](Cc2c[nH]c3ccccc23)C(=O)N[C@@H](Cc2c[nH]c3ccccc23)C(=O)NCC(=O)N[C@H](C(=O)N[C@@H](CCC(=O)O)C(=O)N[C@@H](CC(C)C)C(=O)O)[C@@H](C)O)nn1 | CD274 (Homo sapiens, UniProt Q9NZQ7) | degrader, Western blot | HepG2 | 24 h | DC50 | 2030 ± 380 nM |
| c1cnc2c(N3CCN(CCCN4CCN(c5cccc6sccc56)CC4)CC3)cccc2c1 | 5-hydroxytryptamine receptor 2A (Rattus norvegicus, UniProt P14842) | binding | – | – | Ki | 83.4 ± 9.7 nM |
| CC(C)CC(NC(=O)C(Cc1ccccc1)NC(=O)c1cnc(C(=O)NC(Cc2ccccc2)C(=O)NC(CC(C)C)B(O)O)cn1)B(O)O (centres unmarked) | PSMB6 (Homo sapiens, UniProt P28072) | caspase-like activity, inhibitor, Proteasome-Glo | RPMI-8226 | 24 h | IC50 | 13.5 ± 0.87 nM |
| CCOC(=O)c1c(-c2ccc(Cl)cc2Cl)n(-c2nc(-c3ccc(Cl)cc3)c3c(NC(=O)c4ccccc4)nnc-3[nH]2)[nH]c1=O | SF-539 | SRB | – | 10 µM | cell growth | -4.38% |
| C#CCC(NC(=O)C1CC(C2CCCCC2)CN1C(=O)CSC1CCN(C(=O)CCC(NC(=O)NC(CCC(=O)O)C(=O)O)C(=O)O)CC1)C(=O)NCCOCCOCCNC(=S)Nc1ccc2c(c1)C(=O)OC21c2ccc(O)cc2Oc2cc(O)ccc21 (centres unmarked) | FOLH1 (Homo sapiens, UniProt Q04609) | fluorescence polarization | – | FITC-labelled compound | Kd | 0.9 nM |
| Cc1ccc(-c2n[nH]cc2-c2ccnc3ccccc23)nc1 | MAPK14 | kinase activity, inhibitor, ADP-Glo | – | added: ATP 80 µM | IC50 | 17500 nM |
| CCOC(=O)Oc1ccc2c(c1OC(=O)OCC)C(=O)c1ccccc1C2=O | NAT1 (Homo sapiens, UniProt P18440) | PABA N-acetylation, inhibitor | cryopreserved human hepatocytes | 1 h preincubation, added: 10 µM p-aminobenzoic acid | IC50 | 75500 ± 300 nM |
| Cc1sc2c(c1C)C(c1ccc(Cl)cc1)=N[C@@H](CC(=O)NCC(=O)NCC(=O)NCC(=O)NCC(=O)N[C@H]1CSCc3cccc(c3)CSC[C@@H](C(N)=O)NC(=O)[C@H](CC(C)C)NC(=O)[C@H](CC(=O)O)NC(=O)[C@@H]3CCCN3C1=O)c1nnc(C)n1-2 | BRD4/KLHL20, BD1 (Homo sapiens, UniProt O60885+Q9Y2M5) | ternary complex formation, ELISA | – | added: immobilized KLHL20 Kelch domain | EC50 | 8 nM |
| Cc1cc(S(=O)(=O)N[C@H](C)CO[C@H]2CC[C@H](CN3CCN(c4ccc5c(c4F)n(C)c(=O)n5C4CCC(=O)NC4=O)CC3)CC2)ccc1Nc1ncc(C(F)(F)F)c([C@H]2CC[C@@](C)(O)CC2)n1 (some centres unmarked) | CDK2 (Homo sapiens, UniProt P24941) | degrader, AlphaLISA | MKN-1 CCNE1-amplified | 14 h | DC50 | 13 nM |
| N#Cc1c(-c2ccc(Cl)cc2Cl)n(-c2nc(-c3ccc(Cl)cc3)c3c(NC(=O)c4ccccc4)nnc-3[nH]2)[nH]c1=O | SF-295 | SRB | – | 10 µM | cell growth | -13.9% |
| COc1ccc(-c2cn3cccnc3n2)cc1NC(=O)C(C)C | FPR1 | binding | – | single representative run | Ki | 3500 nM |
| COc1cccc([C@@H]2N=C(c3ccc(OC)cc3OC(C)C)N(C(=O)N3CCNC(=O)C3)[C@@H]2c2ccc(Cl)cc2)c1 (relative stereo) | MDM4 | – | – | pH 6.5, 298 K, global fit common resonances | Kd | 4200 ± 1000 nM |
| CCC(=O)O[C@H](CCOCc1ccccc1)[C@@H](C)[C@H](O)[C@@H](C)CCC(=O)[C@H](C)[C@H](OC(C)=O)[C@H](C)/C=C/N(C)C=O | Actin, alpha skeletal muscle, monomeric (ACTA1, Oryctolagus cuniculus, UniProt P68135) | Prodan fluorescence titration | G-actin | pH 8.0, added: 0.2 mM ATP | Kd | 285 ± 32.6 nM |
| CC/C=C\C/C=C\CCC/C=C/C=C/C=C\CCCC(=O)O | DNA polymerase beta (Rattus norvegicus, UniProt P06766) | enzyme activity, inhibitor | – | added: 0.05 units polymerase | IC50 | 31600 ± 1900 nM |
| CSCC[C@@H]1NC(=O)[C@H](Cc2ccc(O)cc2)NC(=O)[C@H](Cc2ccccc2)NC(=O)[C@H](CCC(N)=O)NC(=O)[C@@H]2CCCN2C(=O)[C@H](Cc2c[nH]cn2)NC(=O)[C@@H](NC(=O)[C@H](C)N)CSSC[C@@H](C(=O)N[C@@H](CO)C(=O)NCC(=O)O)NC(=O)[C@H](CCCNC(=N)N)NC1=O | Avidin, deglycosylated (AVD, Gallus gallus, UniProt P02701) | binding, yeast display flow cytometry | – | 30 to 300 nM, 1 h, 4 °C, added: neutravidin-DyLight 650 | apparent Kd | no binding |
| COc1ccc(C2=N[C@@H](c3cccc(Cl)c3)[C@@H](c3ccc(Cl)cc3)N2C(=O)N2CCNC(=O)C2)c(OC(C)C)c1 (relative stereo) | MDM4 | – | – | pH 6.5, 298 K, global fit common resonances | Kd | 6000 ± 1800 nM |
| NS(=O)(=O)c1nnc(NC(=O)C2C3CC4CC(C3)CC2C4)s1 (centres unmarked) | alpha-carbonic anhydrase (Enterococcus faecium, UniProt Q3XYE8) | CO2 hydration, inhibitor, stopped-flow kinetics | – | – | Ki | 92.4 nM |
| CCc1cc2c(=O)c(-c3nc4ccccc4n3C)c(C)oc2cc1OC(C)=O | FPR1 | binding | – | – | Ki | 95 nM |
| C[C@H](NC(=O)[C@@H](N)Cc1ccc(O)cc1)C(=O)NCC(=O)N[C@@H](COP(=O)(O)O)C(=O)N[C@H](C(=O)N[C@@H](CC(=O)O)C(=O)N[C@@H](CCC(=O)O)C(=O)N[C@@H](CC(N)=O)C(=O)N[C@H](C(=O)N[C@@H](CC(=O)O)C(=O)N[C@@H](CO)C(=O)N[C@@H](CCC(=O)O)C(=O)O)[C@@H](C)O)[C@@H](C)O | Bifunctional polynucleotide phosphatase/kinase, FHA domain (Homo sapiens, UniProt Q96T60) | binding, isothermal titration calorimetry | – | 400 µM, pH 7.5, 10 °C | Kd | no binding |
